{"data": "Measured values of several laboratories", "note": "A part holds a random share of what one study measured."}
{"data": "Series 1", "target": "POU, POU domain (Salpingoeca helianthica)", "technique": "Spec-seq", "form": "double-stranded DNA, one strand shown", "medium": "in vitro", "tested at": "not given", "setting": "whole probe, mean of replicates", "baseline": "not given", "direction": "lower = stronger binding", "shared flanks, not repeated": "GAGTCGTCTCGTCAGCAC … CCGTAGAGCACTCAGGTC", "Residues (chain)": "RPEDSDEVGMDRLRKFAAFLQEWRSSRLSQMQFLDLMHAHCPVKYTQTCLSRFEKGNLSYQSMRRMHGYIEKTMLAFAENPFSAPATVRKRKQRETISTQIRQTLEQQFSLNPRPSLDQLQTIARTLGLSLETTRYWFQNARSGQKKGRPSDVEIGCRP"}
{"Oligonucleotide": "GCAATAAT", "relative binding energy [ln ratio]": 0.0185}
{"Oligonucleotide": "ATGCACTC", "relative binding energy [ln ratio]": 1.19}
{"Oligonucleotide": "ATAGGCAT", "relative binding energy [ln ratio]": 1.18}
{"Oligonucleotide": "CGTCTAAT", "relative binding energy [ln ratio]": 0.818}
{"Oligonucleotide": "ATGAACAT", "relative binding energy [ln ratio]": 1.05}
{"Oligonucleotide": "ATGCGCCG", "relative binding energy [ln ratio]": 1.1}
{"data": "Series 2", "target": "Interferon regulatory factor 7, full length, phosphomimetic (IRF7, Homo sapiens, UniProt Q92985, residues 1-503, S471D/S472D/S475D/S476D/S477D/S483D/S484D/S487D)", "technique": "protein-binding microarray", "form": "double-stranded DNA, one strand shown", "medium": "in vitro", "tested at": "2200 nM top", "setting": "60-bp whole probe", "added": "salmon DNA 0.4 mg/ml", "baseline": "random background probes", "direction": "higher = stronger binding", "shared flanks, not repeated": "GCCTAGCAC … GTCTTGATTCGCTTGACGCTGCTG", "chain of UniProt Q92985 (whole entry, unmodified, looked up)": "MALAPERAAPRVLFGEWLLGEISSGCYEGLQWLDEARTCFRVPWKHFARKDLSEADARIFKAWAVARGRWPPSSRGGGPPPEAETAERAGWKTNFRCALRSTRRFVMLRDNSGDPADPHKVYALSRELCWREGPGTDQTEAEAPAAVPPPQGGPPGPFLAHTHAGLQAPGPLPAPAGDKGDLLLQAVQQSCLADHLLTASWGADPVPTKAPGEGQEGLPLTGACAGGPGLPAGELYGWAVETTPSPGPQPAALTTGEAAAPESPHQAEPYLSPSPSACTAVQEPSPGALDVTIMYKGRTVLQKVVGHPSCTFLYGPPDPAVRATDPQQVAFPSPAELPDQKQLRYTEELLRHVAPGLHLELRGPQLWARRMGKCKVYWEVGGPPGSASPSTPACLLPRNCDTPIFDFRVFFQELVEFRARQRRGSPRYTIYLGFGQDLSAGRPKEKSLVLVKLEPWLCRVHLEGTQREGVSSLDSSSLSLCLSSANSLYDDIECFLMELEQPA"}
{"Oligonucleotide": "GACGGTTTGGGGTTTCGGGACGTGCTA", "fitted relative affinity [z-score]": 1.92}
{"Oligonucleotide": "GACGAACCGAGTTTCGAGACGTGCTAG", "fitted relative affinity [z-score]": 3.49}
{"Oligonucleotide": "GACGGACCGGGTTTCGGGACGTGCTAG", "fitted relative affinity [z-score]": 0.77}
{"Oligonucleotide": "TCATCTCTCCCATTCTGACTGTGCTAG", "fitted relative affinity [z-score]": 2.27}
{"Oligonucleotide": "GACGGACTGGGTATCGGGAGGTGCTAG", "fitted relative affinity [z-score]": -0.693}
{"Oligonucleotide": "TTAGGTATAGACTATCGGTTAGTGCTA", "fitted relative affinity [z-score]": -0.106}
{"data": "Series 3", "target": "RNA binding protein fox-1 homolog 2, RRM domain, GST-SBP tag (RBFOX2, Homo sapiens, UniProt O43251-10, residues 100-194)", "technique": "RNA Bind-n-Seq", "form": "RNA", "medium": "in vitro", "tested at": "365 nM", "setting": "natural RNA segment, single round, ends assumed", "baseline": "no-protein control", "direction": "higher = stronger binding", "shared flanks, not repeated": "GGGAGUUCUACAGUCCGACGAUC … UGGAAUUCUCGGGUGCCAA", "Construct (chain)": "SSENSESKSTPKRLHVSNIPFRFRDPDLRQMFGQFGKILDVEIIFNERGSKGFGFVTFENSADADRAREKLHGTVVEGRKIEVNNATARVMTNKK"}
{"Oligonucleotide": "UAUUUCUAUAAGGAUGGAUUUAUAAUUUUCCCCUCAACAUGGCAACUCUCUCUGUGAAAAUUUAAAUUGUGUGUGUUCUAUCUUUAGAUCCCCUCCAUUUAUUUGUUUAA", "RBNS enrichment (R)": 0.325}
{"Oligonucleotide": "UCCAUAGCACUUAACUGUAGUGAAUACUGUGUCACCAGUUCUGAAAUCAAUUUAAUGUUUAAUGCAAAUCCAUUACAUGGUGCUAUUACAGGCUGACAAAAUGAUUCACA", "RBNS enrichment (R)": 0.32}
{"Oligonucleotide": "UAUAUUUUCAUUAUAAAAAACCAGUUUAAAAUUUUUUCUUAUUUUAAUUGUUUGAAAUUUUUCUAGAGCCAAAGAAGCUCUUUAAAGAAGUUGUUUCUUCCAAAGAACAA", "RBNS enrichment (R)": 1.24}
{"Oligonucleotide": "CUGGGUGAUGCUUACGGGAAGGAGAUUGGUAGAUGCAGUCUUUUUUUCCCCCUUAGCACUUGUAUGAGUGAGGAGAAAGUUAGGUAAAGAUUGAAACUAUAAAUUACAGU", "RBNS enrichment (R)": 2.67}
{"Oligonucleotide": "AGUAAGAAAUACAAGCCAGGCCGGGCGGUGGUGGCGCACACCUUUGAUCCCAGCACUUGGGAGGCAGAGGCAGGCGGAUUUUUGAGUUUGAGACCAGCCUGAUCCAUAGA", "RBNS enrichment (R)": 0.612}
{"data": "Further values, each from its own experiment"}
{"Substance": "PhoQ, residues 284 288 289 292 302 303 SACGEM", "target": "PhoP, residues 12 14 15 18 19 NHFRA (Escherichia coli, UniProt P23836)", "assay": "Sort-seq, refers to: YFP reporter", "system": "E. coli", "conditions": "PhoQ-PhoP variant library, added: 10 µM Mg2+", "how to read": "baseline: high Mg2+ state, higher = stronger signaling", "measurement": "fold induction", "value": 5.13}
{"note": "For quick reference, copied from above (series 2):"}
{"Oligonucleotide": "GACGGACTGGGTATCGGGAGGTGCTAG", "fitted relative affinity [z-score]": -0.693}
{"Oligonucleotide": "GACGAACCGAGTTTCGAGACGTGCTAG", "fitted relative affinity [z-score]": 3.49}
{"Oligonucleotide": "TCATCTCTCCCATTCTGACTGTGCTAG", "fitted relative affinity [z-score]": 2.27}
